Measurements of several laboratories.
Parts stem from different laboratories: compare values within a part only. Several values in a cell are separate wells, animals, samples, runs or records.
Chain of UniProt O75582 (whole entry, looked up): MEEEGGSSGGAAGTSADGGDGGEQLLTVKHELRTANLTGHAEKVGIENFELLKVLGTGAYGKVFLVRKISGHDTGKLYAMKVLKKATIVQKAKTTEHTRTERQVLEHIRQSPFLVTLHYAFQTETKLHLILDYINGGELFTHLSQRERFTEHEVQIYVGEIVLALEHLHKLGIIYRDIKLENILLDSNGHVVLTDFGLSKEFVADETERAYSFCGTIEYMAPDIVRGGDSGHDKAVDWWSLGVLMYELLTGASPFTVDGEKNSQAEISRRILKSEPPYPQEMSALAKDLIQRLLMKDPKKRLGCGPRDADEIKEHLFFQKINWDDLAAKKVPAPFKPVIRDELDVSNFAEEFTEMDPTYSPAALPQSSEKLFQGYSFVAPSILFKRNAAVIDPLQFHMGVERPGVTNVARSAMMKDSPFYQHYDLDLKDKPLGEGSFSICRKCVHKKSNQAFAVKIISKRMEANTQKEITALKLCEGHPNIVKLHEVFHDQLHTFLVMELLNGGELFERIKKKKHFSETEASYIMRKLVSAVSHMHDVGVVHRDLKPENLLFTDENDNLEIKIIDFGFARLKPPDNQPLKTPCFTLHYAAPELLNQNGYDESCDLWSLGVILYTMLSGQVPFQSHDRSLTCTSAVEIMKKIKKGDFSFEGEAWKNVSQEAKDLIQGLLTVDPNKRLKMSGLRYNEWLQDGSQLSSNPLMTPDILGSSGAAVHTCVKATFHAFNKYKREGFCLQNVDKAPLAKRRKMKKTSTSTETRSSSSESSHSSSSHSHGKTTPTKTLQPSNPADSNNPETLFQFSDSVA
Chain of UniProt Q16816 (whole entry, looked up): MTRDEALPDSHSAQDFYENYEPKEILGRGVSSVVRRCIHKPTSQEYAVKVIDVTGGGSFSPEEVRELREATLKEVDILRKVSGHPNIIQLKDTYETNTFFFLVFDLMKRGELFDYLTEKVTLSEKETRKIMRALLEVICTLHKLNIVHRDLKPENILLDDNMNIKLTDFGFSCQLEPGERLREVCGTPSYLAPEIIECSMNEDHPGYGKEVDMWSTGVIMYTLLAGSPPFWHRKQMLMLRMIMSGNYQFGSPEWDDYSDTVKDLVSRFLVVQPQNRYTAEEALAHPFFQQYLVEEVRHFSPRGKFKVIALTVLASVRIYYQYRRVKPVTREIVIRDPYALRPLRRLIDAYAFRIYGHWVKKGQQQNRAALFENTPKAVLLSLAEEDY
Chain of UniProt O43781 (whole entry, looked up): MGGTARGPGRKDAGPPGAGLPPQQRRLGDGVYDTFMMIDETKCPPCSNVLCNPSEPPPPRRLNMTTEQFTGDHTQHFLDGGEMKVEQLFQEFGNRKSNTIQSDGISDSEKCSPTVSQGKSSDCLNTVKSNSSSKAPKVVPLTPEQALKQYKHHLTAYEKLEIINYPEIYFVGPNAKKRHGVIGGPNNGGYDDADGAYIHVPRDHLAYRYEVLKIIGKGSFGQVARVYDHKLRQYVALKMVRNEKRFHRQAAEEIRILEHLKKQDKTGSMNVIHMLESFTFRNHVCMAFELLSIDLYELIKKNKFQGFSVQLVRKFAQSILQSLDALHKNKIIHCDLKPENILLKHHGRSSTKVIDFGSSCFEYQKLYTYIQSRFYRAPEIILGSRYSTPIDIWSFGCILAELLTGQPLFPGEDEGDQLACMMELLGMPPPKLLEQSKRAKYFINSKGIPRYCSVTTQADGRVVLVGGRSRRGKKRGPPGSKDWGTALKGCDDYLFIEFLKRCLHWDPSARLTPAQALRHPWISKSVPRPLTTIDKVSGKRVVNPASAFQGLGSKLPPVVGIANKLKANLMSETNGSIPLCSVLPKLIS
Chain of UniProt P19525 (whole entry, looked up): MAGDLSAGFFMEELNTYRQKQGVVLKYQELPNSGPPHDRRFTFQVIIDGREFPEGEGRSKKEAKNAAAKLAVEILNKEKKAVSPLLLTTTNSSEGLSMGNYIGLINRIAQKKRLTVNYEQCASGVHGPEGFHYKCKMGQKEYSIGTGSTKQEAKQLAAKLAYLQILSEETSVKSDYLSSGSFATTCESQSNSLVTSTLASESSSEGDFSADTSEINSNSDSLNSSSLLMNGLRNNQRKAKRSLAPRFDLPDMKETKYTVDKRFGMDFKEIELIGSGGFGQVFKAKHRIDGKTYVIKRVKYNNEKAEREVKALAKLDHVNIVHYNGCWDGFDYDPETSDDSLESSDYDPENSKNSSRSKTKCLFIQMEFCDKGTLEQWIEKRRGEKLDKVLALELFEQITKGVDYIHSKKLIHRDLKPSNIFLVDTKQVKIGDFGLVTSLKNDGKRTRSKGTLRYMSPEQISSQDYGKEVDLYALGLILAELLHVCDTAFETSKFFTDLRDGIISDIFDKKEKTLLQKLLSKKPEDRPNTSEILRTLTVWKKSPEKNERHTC
Chain of UniProt Q9UK32 (whole entry, looked up): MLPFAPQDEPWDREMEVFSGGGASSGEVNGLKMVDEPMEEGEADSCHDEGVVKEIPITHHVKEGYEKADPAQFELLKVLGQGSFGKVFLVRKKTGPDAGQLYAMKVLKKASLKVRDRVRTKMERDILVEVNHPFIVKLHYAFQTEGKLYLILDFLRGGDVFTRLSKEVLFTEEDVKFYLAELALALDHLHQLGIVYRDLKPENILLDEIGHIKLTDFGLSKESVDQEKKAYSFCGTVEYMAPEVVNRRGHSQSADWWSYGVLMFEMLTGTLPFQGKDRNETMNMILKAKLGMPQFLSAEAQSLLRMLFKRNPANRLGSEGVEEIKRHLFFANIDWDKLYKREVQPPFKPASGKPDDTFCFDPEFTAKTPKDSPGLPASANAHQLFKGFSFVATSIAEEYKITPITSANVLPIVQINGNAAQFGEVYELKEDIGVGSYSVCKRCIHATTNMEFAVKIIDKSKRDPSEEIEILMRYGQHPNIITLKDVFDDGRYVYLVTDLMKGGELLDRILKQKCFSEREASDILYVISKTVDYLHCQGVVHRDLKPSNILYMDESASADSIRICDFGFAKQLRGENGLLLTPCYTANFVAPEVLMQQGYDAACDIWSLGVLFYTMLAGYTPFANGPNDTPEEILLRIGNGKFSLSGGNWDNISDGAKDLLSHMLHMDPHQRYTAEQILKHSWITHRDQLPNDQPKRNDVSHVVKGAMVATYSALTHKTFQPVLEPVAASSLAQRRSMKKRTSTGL
Chain of UniProt O75716 (whole entry, looked up): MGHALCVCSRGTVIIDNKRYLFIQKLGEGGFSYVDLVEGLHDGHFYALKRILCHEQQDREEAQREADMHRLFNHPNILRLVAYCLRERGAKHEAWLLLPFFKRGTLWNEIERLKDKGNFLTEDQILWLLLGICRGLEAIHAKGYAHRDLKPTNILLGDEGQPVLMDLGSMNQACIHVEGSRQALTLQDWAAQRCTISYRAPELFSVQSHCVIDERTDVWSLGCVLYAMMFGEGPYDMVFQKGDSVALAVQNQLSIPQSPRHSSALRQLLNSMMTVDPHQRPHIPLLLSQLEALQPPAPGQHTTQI
Chain of UniProt O95819 (whole entry, looked up): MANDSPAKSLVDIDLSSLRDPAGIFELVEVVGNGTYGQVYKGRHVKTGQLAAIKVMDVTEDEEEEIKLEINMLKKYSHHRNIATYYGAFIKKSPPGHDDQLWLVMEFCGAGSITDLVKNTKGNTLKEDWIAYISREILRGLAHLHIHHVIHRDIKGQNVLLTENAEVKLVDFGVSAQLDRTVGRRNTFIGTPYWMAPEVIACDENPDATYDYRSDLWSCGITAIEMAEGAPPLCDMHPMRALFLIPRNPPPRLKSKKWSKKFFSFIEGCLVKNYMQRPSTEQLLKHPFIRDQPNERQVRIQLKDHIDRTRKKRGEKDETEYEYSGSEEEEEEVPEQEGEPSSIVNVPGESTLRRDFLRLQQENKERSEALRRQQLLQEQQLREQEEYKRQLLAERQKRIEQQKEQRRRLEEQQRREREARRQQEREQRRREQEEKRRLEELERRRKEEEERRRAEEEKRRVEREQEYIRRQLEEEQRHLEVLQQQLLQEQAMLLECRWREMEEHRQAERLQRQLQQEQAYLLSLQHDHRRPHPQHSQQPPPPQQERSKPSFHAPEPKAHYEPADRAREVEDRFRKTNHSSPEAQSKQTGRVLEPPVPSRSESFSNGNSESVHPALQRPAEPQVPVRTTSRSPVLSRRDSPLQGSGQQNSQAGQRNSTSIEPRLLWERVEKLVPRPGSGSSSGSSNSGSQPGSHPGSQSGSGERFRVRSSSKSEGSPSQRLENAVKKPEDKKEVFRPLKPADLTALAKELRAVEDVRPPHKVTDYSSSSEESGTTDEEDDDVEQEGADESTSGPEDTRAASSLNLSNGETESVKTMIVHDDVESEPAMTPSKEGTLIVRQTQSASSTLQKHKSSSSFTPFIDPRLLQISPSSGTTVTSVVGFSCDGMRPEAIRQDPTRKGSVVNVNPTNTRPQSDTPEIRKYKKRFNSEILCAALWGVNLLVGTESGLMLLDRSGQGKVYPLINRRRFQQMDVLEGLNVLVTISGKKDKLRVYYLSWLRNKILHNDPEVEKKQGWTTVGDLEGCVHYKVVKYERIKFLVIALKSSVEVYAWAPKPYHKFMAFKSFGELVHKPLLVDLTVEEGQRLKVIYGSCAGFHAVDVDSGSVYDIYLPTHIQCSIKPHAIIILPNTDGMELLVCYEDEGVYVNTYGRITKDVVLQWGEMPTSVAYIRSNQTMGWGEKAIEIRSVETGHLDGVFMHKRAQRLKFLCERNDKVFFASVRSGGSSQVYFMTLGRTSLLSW
Chain of UniProt O14965 (whole entry, looked up): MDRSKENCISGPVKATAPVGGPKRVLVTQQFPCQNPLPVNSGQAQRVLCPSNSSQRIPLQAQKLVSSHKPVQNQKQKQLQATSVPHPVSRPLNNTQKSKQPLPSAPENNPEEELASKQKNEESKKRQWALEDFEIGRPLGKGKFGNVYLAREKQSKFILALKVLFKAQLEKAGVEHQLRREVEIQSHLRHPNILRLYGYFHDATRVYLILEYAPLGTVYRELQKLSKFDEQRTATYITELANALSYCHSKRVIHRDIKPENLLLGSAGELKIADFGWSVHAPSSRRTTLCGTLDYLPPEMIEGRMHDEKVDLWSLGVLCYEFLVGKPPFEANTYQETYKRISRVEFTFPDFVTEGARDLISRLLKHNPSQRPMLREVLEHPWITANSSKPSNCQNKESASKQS

Block 1
Matrix: 1,9-decadiene/PBS
pH: 7.4
Structure (SMILES)	logD
CC(C)C[C@@H]1NC(=O)[C@H](C(C)C)NC(=O)[C@H](CCC(=O)N2CCCC2)NC(=O)[C@H](CCC(=O)N2CCCC2)NC(=O)[C@@H](CCC(=O)N2CCCC2)NC(=O)[C@H](CC(C)C)NC(=O)[C@@H](CC(C)C)NC1=O	-2.28
CC(C)C[C@@H]1NC(=O)[C@H](C(C)C)NC(=O)[C@@H](CC(C)C)NC(=O)[C@@H](CC(C)C)NC(=O)[C@H](C(C)C)NC(=O)[C@H](CC(C)C)NC(=O)[C@@H](CC(C)C)NC1=O	2.76
CC(C)C[C@@H]1NC(=O)[C@H](C)NC(=O)[C@H](CC(C)C)NC(=O)[C@H](C(C)C)NC(=O)[C@H](CC(C)C)NC(=O)[C@@H](CC(C)C)NC(=O)[C@H](CC(C)C)NC1=O	1.15
CC(C)C[C@@H]1NC(=O)[C@H](CC(C)C)NC(=O)[C@H](CC(C)C)NC(=O)[C@@H](C)NC(=O)[C@H](C)NC(=O)[C@@H](CC(C)C)NC(=O)[C@H](C)NC1=O	-1.8
CC(C)C[C@@H]1NC(=O)[C@H](C(C)C)NC(=O)[C@H](Cc2cscn2)NC(=O)[C@H](CC(C)C)NC(=O)[C@@H](CCC(=O)N2CCCC2)NC(=O)[C@H](CC(C)C)NC(=O)[C@@H](CC(C)C)NC1=O	-0.537
CC(C)C[C@@H]1NC(=O)[C@H](C(C)C)NC(=O)[C@H](C)NC(=O)[C@H](CCC(=O)N2CCCC2)NC(=O)[C@@H](CCC(=O)N2CCCC2)NC(=O)[C@H](CC(C)C)NC(=O)[C@@H](CC(C)C)NC1=O	-2.47

Block 2
SMILES: CCCCN(CCCC)C(=O)CN1C[C@H](c2cc(OC)c3c(c2)OCO3)[C@@H](C(=O)O)[C@@H]1CC(C)(C)CCC
Read-out: cell-free assay
Technique: competition with immobilised ligand
Concentration: 1 µM
target	remaining binding [%]
Aurora kinase A (AURKA, Homo sapiens, UniProt O14965)	90.3
CDK2 (Homo sapiens, UniProt P24941)	100
Ribosomal protein S6 kinase alpha-5, C-terminal kinase domain (RPS6KA5, Homo sapiens, UniProt O75582)	100
COQ8A (Homo sapiens, UniProt Q8NI60)	100
STK35 (Homo sapiens, UniProt Q8TDR2)	100
FLT3 (Homo sapiens, UniProt P36888, D835Y)	100
EIF2AK2 (Homo sapiens, UniProt P19525)	100
MAP2K7 (Homo sapiens, UniProt O14733)	90.8

Block 3
Compound: CC(=O)N[C@@H](Cc1c[nH]c2ccccc12)C(=O)N[C@@H](CCC(=O)C=[N+]=[N-])C(=O)OC(C)C
Dose: dose not given
Relative to: vehicle
technique	item	host	matrix	fold change
	ribose	mouse, EL4 tumour-bearing	EL4 tumour	3.23
	2'-deoxyguanosine 3'-monophosphate	mouse, EL4 tumour	tumour	3.77
metabolomics	2,3-dihydroxy-2-methylbutyrate	mouse	EL4 tumour	0.438
	FGAR	mouse, EL4 tumour-bearing	EL4 tumour	17.3
	1-methylhistamine	mouse, EL4 tumour-bearing	EL4 tumour	2.57
	CoA-glutathione*	mouse, EL4 tumour-bearing	EL4 tumour	0.41

Block 4
Compound: Nc1[nH]nc2nnc(-c3c(-c4ccccc4)nn4ccccc34)cc12
Read-out: enzyme activity
Action: inhibitor
Concentration: 0.5 µM
Relative to: control
target	remaining activity [%]
AXL (Homo sapiens, UniProt P30530)	99.1
Cyclin-dependent kinase 4, with cyclin D3 (CDK4, Homo sapiens, UniProt P11802)	100
PHKG1 (Homo sapiens, UniProt Q16816)	101
BLK (Homo sapiens, UniProt P51451)	98.1
DYRK3 (Homo sapiens, UniProt O43781)	99.8
Cyclin-dependent kinase 1, with cyclin B (CDK1, Homo sapiens, UniProt P06493)	90.2
STK16 (Homo sapiens, UniProt O75716)	108
HIPK2 (Homo sapiens, UniProt Q9H2X6)	104
EPHB4 (Homo sapiens, UniProt P54760)	98.5
RPS6KA6 (Homo sapiens, UniProt Q9UK32)	95.5
EPHB1 (Homo sapiens, UniProt P54762)	98.6
TSSK2 (Homo sapiens, UniProt Q96PF2)	104
WNK3 (Homo sapiens, UniProt Q9BYP7)	101
RPS6KA5 (Homo sapiens, UniProt O75582)	101
PDPK1 (Homo sapiens, UniProt O15530)	104
Cyclin-dependent kinase 6, with cyclin D3 (CDK6, Homo sapiens, UniProt Q00534)	90.4
ABL1 (Homo sapiens, UniProt P00519)	83.3
CAMK2B (Homo sapiens, UniProt Q13554)	102
MAP4K4 (Homo sapiens, UniProt O95819)	62
SRMS (Homo sapiens, UniProt Q9H3Y6)	93
MAPKAPK3 (Homo sapiens, UniProt Q16644)	103

Block 5
Cell line: mouse MPNST tumor cells
Technique: high-content immunofluorescence imaging
Item: nuclear SOX9
Concentration: 10 µM
Time: 12 h
Notes: mean of 2 replicates
Relative to: DMSO control
Reading: higher = more nuclear SOX9
Compound	nuclear SOX9 intensity
CC1CNc2c(cccc2S(=O)(=O)N[C@@H](CCCNC(=N)N)C(=O)N2CC[C@@H](C)C[C@@H]2C(=O)O)C1 (stereo partly shown)	93.6 % of DMSO and 97.7 % of DMSO and 96.6 % of DMSO
O=C(CCCCCCC(=O)NO)NO	120 % of DMSO
CCc1nn(CCCN2CCN(c3cccc(Cl)c3)CC2)c(=O)n1CCOc1ccccc1	116 % of DMSO
CN(C)CCn1nnnc1SCC1=C(C(=O)O)N2C(=O)[C@@H](NC(=O)Cc3csc(N)n3)[C@H]2SC1	100 % of DMSO
O=C(O)CCNc1cc(N2CCc3ccccc3CC2)nc(-c2ccccn2)n1	87.5 % of DMSO

Some of these lines once more (block 1):
Structure (SMILES)	logD
CC(C)C[C@@H]1NC(=O)[C@H](C(C)C)NC(=O)[C@H](Cc2cscn2)NC(=O)[C@H](CC(C)C)NC(=O)[C@@H](CCC(=O)N2CCCC2)NC(=O)[C@H](CC(C)C)NC(=O)[C@@H](CC(C)C)NC1=O	-0.537
CC(C)C[C@@H]1NC(=O)[C@H](C(C)C)NC(=O)[C@H](CCC(=O)N2CCCC2)NC(=O)[C@H](CCC(=O)N2CCCC2)NC(=O)[C@@H](CCC(=O)N2CCCC2)NC(=O)[C@H](CC(C)C)NC(=O)[C@@H](CC(C)C)NC1=O	-2.28
CC(C)C[C@@H]1NC(=O)[C@H](CC(C)C)NC(=O)[C@H](CC(C)C)NC(=O)[C@@H](C)NC(=O)[C@H](C)NC(=O)[C@@H](CC(C)C)NC(=O)[C@H](C)NC1=O	-1.8
CC(C)C[C@@H]1NC(=O)[C@H](C(C)C)NC(=O)[C@H](C)NC(=O)[C@H](CCC(=O)N2CCCC2)NC(=O)[C@@H](CCC(=O)N2CCCC2)NC(=O)[C@H](CC(C)C)NC(=O)[C@@H](CC(C)C)NC1=O	-2.47
CC(C)C[C@@H]1NC(=O)[C@H](C(C)C)NC(=O)[C@@H](CC(C)C)NC(=O)[C@@H](CC(C)C)NC(=O)[C@H](C(C)C)NC(=O)[C@H](CC(C)C)NC(=O)[C@@H](CC(C)C)NC1=O	2.76
CC(C)C[C@@H]1NC(=O)[C@H](C)NC(=O)[C@H](CC(C)C)NC(=O)[C@H](C(C)C)NC(=O)[C@H](CC(C)C)NC(=O)[C@@H](CC(C)C)NC(=O)[C@H](CC(C)C)NC1=O	1.15
